Measured values from different studies.
Every numbered part comes from another study and shows a few of its results, in no order.

Set 1
Target: crk3 (Leishmania mexicana, UniProt O15851)
Observed: enzyme activity
Mode: inhibitor
Technique: radiometric
Quantity: IC50
COc1ccc(-c2ccc3nc(NC(=O)C4CCCCC4)nn3c2)cc1C: 30 nM
Cn1ccc2c(-c3ccc4nc(NC(=O)C5CCCCC5)nn4c3)cccc21: 40 nM
COc1cc(-c2ccc3nc(NC(=O)C4CCCCC4)nn3c2)ccc1O: 230 nM
COc1cccc(-c2ccc3nc(NC(=O)C4CCCCC4)nn3c2)c1: 360 nM

Set 2
Matrix: rat liver microsomes
Tested at: 5 µM
Time: 15 min
Quantity: compound metabolized
FC(F)(F)c1c(-c2ccc(N3CCNCC3)c(Cl)c2)ccn2c(CC3CC3)nnc12: 23%
Clc1c(-c2ccc(Oc3ccccc3)cc2)ccn2c(CC3CC3)nnc12: 10%
COc1ccc(CNc2ccc(-c3ccn4c(CC5CC5)nnc4c3C(F)(F)F)cc2F)cn1: 93%
FC(F)(F)c1c(CN2CCC(c3ccccc3)CC2)ccn2c(CC3CC3)nnc12: 84%
CCOCc1nnc2c(C(F)(F)F)c(-c3ccc4[nH]ccc4c3)ccn12: 97%
Cc1cc(Oc2ccc(-c3ccn4c(CC5CC5)nnc4c3C(F)(F)F)cc2F)ccn1: 29%

Set 3
Host: mouse, PTZ-induced seizures
Route: oral
Dose: 20 mg/kg
Relative to: valproic acid 300 mg/kg
Quantity: relative protection
O=C(O)COc1ccc(Br)cc1/C=N/NC(=O)CNc1ccc(Cl)cc1: 66.7%
O=C(O)COc1ccc(Br)cc1/C=N/NC(=O)CNc1ccccc1: 83.3%
Cc1ccc(NCC(=O)N/N=C/c2cc(Br)ccc2OCC(=O)O)cc1: 66.7%
Cc1ccc(C(=O)N/N=C/c2cc(Br)ccc2OCC(=O)O)cc1: 133%

Mixed results
O=C(N[C@@H](CC1CCCCC1)C(=O)N[C@@H](C[C@@H]1CCNC1=O)C(O)S(=O)(=O)O)OCc1ccccc1 (stereo partly shown) — therapeutic index (feline coronavirus; CRFK, FIPV-1146; relative to: CC50 over EC50): > 7500
O=C[C@H](C[C@@H]1CCNC1=O)NC(=O)[C@H](CC1CCCCC1)NC(=O)OCc1ccccc1 — CC50 (CRFK; cell growth or viability; 36 h): > 150000 nM

Some of these lines once more (set 3):
Cc1ccc(NCC(=O)N/N=C/c2cc(Br)ccc2OCC(=O)O)cc1: 66.7%
Cc1ccc(C(=O)N/N=C/c2cc(Br)ccc2OCC(=O)O)cc1: 133%
